Measured values from different studies.
Lines come from different studies, so protocols differ. Numbers after ± are the reported error.

For CC=C(C)C(=O)OC1C(O)C2OC(COC(=O)CCCCCCCCCC(CCCCC)OC3OC(C)C(OC(C)=O)C(O)C3O2)C1OC(=O)C=Cc1ccccc1 (centres unmarked), the IC50 was 0.0161 µM (MDA-MB-231; cytotoxicity).
For [Cl-].[Cl-].[Ni+2].c1ccc(CN2CCNCCN(Cc3ccccc3)CCNCC2)cc1, the IC50 was greater than 20 µM (THP-1; cell growth or viability).
CCCCn1cc(C(=O)O)c(=O)c2cc(F)c(Nc3cccc(Cl)c3)c(N)c21 gave an IC50 of 0.84 µM (HCT-116; cell growth or viability, SRB).
CC=C(C)C(=O)OC1C(O)C2COC(=O)CCC(=O)CCCCCCC(CCCCC)OC3OC(C)C(OC(C)=O)C(O)C3OC(O2)C1O (centres unmarked) gave an IC50 of 7.13 µM (MDA-MB-231; cytotoxicity).
CCCCn1cc(C(=O)O)c(=O)c2cc(F)c(Nc3cccc(Cl)c3)c([N+](=O)[O-])c21 has an IC50 of 33.8 ± 2.02 µg/mL (HCT-116; cell growth, SRB; 72 h).
CC[C@H](C)[C@H]1C(=O)O[C@H](C(C)C)C(=O)N(C)[C@@H]([C@@H](C)CC)C(=O)O[C@H](C(C)C)C(=O)N(C)[C@@H]([C@@H](C)CC)C(=O)O[C@H](C(C)C)C(=O)N1C gave an IC50 of 7.5 µM (murine cancer cells; cytotoxicity).
With CC=C(C)C(=O)OC1C(O)C2OC(COC(=O)CCC(=O)CCCCCCC(CCCCC)OC3OC(C)C(OC(C)=O)C(O)C3O2)C1OC(=O)CCc1ccccc1 (centres unmarked) the IC50 was 0.98 µM (MDA-MB-231; cytotoxicity).
With CCCCn1cc(C(=O)O)c(=O)c2cc(F)c(Nc3ccccc3Cl)c([N+](=O)[O-])c21 the IC50 was 42.1 ± 1.79 µg/mL (HCT-116; cell growth, SRB; 72 h).
The IC50 of CCCC(C)C1OC(=O)[C@H](C(C)C)N(C)C(=O)[C@H](CO)NC(=O)[C@H]([C@@H](C)C(N)=O)NC(=O)[C@@H]([C@H](C)OC(N)=O)NC(=O)[C@H](O)CNC(=O)/C=C/C=C/CC(O)C1C (some centres unmarked) is reported as greater than 25 µg/mL (HCT-116; MTT; 24 h).
For CCCCn1cc(C(=O)O)c(=O)c2cc(F)c3c(nnn3-c3cccc(Cl)c3)c21, the IC50 was 34.9 ± 2.59 µg/mL (HCT-116; cell growth, SRB; 72 h).
The IC50 of COC(=O)CCC(C)C1CCC2C3C(O)CC4CC(OC(=O)CCC(=O)OC5OC6OC7(C)CCC8C(C)CCC(C5C)C68OO7)CCC4(C)C3CCC12C (centres unmarked) is reported as greater than 100 µM (Vero E6; cytotoxicity; 24 h).
The IC50 of CC[C@H](C)[C@H](NC(=O)[C@H](CCCCN)NC(=O)[C@H](CCCCN)NC(=O)[C@H](Cc1ccccc1)NC(=O)[C@H](Cc1ccccc1)NC(=O)[C@H](CCCCN)NC(=O)[C@H](CCCCN)NC(=O)[C@H](Cc1ccccc1)NC(=O)[C@H](CCCNC(=N)N)NC(=O)[C@@H](N)CCCCN)C(=O)N[C@@H](CCCCN)C(=O)N[C@@H](CCCCN)C(=O)N[C@@H](CO)C(=O)N[C@H](C(=O)N[C@@H](CCCCN)C(=O)N[C@@H](CCCCN)C(=O)N[C@@H](CCCNC(=N)N)C(=O)N[C@H](C(=O)N[C@@H](CCCCN)C(=O)N[C@@H](CCCCN)C(=O)N[C@@H](CC(C)C)C(=O)N[C@@H](Cc1ccccc1)C(=O)N[C@@H](CCCCN)C(=O)N[C@@H](CCCCN)C(=O)N1CCC[C@H]1C(=O)N[C@@H](CCCNC(=N)N)C(=O)N[C@H](C(=O)N[C@H](C(=O)N1CCC[C@H]1C(=O)N[C@H](C(=O)N[C@@H](CO)C(=O)N[C@H](C(=O)N1CCC[C@H]1C(=O)N[C@@H](Cc1ccccc1)C(=O)O)[C@@H](C)CC)[C@@H](C)CC)[C@@H](C)CC)C(C)C)C(C)C)C(C)C is reported as greater than 128 µg/mL (BEAS-2B; cytotoxicity, MTT; 48 h).
CC=C(C)C(=O)OC1C(O)C2OC(COC(=O)CCC(=O)CCCCCCC(CCCCC)OC3OC(C)C(O)C(O)C3O2)C1OC(=O)C=Cc1ccccc1 (centres unmarked) has an IC50 of 0.297 µM (MCF-10A; cytotoxicity).
COC1CC(=O)N(C)C=CCCCC(=O)N(C)C(C(C)C)C(=O)N(C)C(CC(C)C)C(=O)OC(C(C)C)CC(C)C1 (centres unmarked) gave an IC50 of 53.5 ± 7.5 µM (HCT-116; cytotoxicity, MTT; 48 h).

Repeated from above:
The IC50 of CCCC(C)C1OC(=O)[C@H](C(C)C)N(C)C(=O)[C@H](CO)NC(=O)[C@H]([C@@H](C)C(N)=O)NC(=O)[C@@H]([C@H](C)OC(N)=O)NC(=O)[C@H](O)CNC(=O)/C=C/C=C/CC(O)C1C (some centres unmarked) is reported as greater than 25 µg/mL (HCT-116; MTT; 24 h).
With CC=C(C)C(=O)OC1C(O)C2OC(COC(=O)CCC(=O)CCCCCCC(CCCCC)OC3OC(C)C(OC(C)=O)C(O)C3O2)C1OC(=O)CCc1ccccc1 (centres unmarked) the IC50 was 0.98 µM (MDA-MB-231; cytotoxicity).
